Experimental data from different studies.
Each numbered part is a random draw from the data of one study; scales do not carry over between parts. “And” joins repeats or separate records; there may be more than shown.
Chain of UniProt Q9HCP0 (whole entry, looked up): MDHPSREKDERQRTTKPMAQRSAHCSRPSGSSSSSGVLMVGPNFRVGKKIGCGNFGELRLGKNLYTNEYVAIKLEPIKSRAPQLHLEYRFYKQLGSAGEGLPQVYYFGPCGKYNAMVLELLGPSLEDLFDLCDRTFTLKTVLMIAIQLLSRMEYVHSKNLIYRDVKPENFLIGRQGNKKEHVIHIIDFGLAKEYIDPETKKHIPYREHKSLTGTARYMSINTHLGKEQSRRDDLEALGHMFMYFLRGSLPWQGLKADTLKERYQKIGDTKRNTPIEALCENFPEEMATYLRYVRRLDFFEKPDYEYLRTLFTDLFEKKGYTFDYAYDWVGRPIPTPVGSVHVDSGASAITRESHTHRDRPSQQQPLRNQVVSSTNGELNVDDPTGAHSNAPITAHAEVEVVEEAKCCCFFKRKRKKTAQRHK
Chain of UniProt Q16832 (whole entry, looked up): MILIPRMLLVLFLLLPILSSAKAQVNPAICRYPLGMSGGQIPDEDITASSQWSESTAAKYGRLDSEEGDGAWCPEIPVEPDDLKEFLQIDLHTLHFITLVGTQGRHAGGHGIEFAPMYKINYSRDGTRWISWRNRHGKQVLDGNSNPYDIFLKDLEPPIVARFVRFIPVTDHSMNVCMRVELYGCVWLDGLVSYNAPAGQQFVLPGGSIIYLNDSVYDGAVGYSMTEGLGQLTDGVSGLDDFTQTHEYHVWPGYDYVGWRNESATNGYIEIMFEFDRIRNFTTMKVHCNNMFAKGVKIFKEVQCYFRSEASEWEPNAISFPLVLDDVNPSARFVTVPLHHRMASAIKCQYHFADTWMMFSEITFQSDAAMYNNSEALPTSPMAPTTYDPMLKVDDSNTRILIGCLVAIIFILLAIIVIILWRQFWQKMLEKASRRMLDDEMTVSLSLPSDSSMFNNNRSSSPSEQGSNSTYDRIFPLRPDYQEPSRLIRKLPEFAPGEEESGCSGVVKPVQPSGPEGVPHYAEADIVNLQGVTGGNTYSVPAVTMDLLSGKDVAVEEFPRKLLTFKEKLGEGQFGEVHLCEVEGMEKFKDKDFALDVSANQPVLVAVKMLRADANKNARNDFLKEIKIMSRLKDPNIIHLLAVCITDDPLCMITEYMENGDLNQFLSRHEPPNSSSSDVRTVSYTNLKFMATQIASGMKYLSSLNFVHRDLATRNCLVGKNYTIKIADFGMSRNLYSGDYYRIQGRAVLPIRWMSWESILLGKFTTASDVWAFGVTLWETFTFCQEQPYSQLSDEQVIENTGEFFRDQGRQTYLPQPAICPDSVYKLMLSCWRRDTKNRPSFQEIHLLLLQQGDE
Chain of UniProt Q9Y5S2 (whole entry, looked up): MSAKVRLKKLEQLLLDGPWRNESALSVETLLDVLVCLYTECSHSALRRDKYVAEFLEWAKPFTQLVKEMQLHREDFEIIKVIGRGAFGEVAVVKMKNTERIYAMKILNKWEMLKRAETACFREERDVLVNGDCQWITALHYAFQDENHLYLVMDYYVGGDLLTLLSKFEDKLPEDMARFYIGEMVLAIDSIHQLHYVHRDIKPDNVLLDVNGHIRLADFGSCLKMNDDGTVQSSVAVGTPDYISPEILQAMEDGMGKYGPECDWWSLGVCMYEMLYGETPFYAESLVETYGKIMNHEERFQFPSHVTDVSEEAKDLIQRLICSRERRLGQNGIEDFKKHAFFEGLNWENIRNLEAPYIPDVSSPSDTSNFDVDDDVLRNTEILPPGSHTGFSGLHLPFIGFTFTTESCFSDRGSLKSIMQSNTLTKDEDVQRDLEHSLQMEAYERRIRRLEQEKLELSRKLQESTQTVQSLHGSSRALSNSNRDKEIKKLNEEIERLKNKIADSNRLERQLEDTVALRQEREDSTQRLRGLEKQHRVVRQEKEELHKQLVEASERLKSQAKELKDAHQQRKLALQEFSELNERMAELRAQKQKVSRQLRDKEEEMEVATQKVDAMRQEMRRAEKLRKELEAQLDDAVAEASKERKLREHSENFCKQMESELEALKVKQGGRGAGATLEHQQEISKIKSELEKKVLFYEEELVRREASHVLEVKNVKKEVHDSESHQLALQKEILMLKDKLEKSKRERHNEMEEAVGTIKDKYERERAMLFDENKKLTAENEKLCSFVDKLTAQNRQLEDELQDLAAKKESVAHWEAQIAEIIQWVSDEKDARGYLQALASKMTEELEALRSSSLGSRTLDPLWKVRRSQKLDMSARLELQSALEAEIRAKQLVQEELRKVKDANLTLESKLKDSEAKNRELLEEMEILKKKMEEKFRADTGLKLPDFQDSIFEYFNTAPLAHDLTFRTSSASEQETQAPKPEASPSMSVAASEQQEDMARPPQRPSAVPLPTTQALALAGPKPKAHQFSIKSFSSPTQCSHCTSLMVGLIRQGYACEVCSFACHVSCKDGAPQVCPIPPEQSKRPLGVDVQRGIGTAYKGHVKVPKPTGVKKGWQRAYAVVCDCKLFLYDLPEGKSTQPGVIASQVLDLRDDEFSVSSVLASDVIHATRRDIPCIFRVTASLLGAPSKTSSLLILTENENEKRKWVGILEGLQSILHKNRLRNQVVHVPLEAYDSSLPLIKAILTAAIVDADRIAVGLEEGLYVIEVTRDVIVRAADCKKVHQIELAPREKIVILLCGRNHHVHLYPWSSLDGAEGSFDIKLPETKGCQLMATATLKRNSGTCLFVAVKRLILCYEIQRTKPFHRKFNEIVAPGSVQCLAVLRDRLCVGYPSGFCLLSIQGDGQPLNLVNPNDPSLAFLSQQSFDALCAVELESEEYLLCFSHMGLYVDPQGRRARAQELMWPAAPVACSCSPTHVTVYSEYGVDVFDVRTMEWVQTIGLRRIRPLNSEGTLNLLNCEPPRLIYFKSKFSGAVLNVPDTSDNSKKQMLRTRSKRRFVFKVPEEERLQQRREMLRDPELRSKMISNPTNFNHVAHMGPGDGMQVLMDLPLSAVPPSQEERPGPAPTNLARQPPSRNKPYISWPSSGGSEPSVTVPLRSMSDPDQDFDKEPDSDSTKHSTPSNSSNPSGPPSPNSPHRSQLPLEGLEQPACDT
Chain of UniProt Q9NYY3 (whole entry, looked up): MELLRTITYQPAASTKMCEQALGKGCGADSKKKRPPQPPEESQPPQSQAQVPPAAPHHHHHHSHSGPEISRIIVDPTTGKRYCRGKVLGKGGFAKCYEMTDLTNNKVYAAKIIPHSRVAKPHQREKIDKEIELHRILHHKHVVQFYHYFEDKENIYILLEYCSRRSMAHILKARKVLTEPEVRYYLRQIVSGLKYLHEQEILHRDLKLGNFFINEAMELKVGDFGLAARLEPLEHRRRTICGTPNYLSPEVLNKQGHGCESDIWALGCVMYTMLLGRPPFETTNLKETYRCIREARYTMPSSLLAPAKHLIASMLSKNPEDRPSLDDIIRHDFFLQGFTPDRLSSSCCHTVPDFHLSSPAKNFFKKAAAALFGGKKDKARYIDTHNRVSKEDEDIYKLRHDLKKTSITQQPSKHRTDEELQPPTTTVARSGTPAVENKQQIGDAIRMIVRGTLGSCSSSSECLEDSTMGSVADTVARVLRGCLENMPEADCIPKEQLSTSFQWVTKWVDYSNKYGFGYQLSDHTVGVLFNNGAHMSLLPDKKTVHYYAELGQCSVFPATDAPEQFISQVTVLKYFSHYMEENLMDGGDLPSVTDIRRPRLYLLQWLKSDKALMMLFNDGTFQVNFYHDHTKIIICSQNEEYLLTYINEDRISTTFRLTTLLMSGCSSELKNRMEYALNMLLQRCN
Chain of UniProt P08581 (whole entry, looked up): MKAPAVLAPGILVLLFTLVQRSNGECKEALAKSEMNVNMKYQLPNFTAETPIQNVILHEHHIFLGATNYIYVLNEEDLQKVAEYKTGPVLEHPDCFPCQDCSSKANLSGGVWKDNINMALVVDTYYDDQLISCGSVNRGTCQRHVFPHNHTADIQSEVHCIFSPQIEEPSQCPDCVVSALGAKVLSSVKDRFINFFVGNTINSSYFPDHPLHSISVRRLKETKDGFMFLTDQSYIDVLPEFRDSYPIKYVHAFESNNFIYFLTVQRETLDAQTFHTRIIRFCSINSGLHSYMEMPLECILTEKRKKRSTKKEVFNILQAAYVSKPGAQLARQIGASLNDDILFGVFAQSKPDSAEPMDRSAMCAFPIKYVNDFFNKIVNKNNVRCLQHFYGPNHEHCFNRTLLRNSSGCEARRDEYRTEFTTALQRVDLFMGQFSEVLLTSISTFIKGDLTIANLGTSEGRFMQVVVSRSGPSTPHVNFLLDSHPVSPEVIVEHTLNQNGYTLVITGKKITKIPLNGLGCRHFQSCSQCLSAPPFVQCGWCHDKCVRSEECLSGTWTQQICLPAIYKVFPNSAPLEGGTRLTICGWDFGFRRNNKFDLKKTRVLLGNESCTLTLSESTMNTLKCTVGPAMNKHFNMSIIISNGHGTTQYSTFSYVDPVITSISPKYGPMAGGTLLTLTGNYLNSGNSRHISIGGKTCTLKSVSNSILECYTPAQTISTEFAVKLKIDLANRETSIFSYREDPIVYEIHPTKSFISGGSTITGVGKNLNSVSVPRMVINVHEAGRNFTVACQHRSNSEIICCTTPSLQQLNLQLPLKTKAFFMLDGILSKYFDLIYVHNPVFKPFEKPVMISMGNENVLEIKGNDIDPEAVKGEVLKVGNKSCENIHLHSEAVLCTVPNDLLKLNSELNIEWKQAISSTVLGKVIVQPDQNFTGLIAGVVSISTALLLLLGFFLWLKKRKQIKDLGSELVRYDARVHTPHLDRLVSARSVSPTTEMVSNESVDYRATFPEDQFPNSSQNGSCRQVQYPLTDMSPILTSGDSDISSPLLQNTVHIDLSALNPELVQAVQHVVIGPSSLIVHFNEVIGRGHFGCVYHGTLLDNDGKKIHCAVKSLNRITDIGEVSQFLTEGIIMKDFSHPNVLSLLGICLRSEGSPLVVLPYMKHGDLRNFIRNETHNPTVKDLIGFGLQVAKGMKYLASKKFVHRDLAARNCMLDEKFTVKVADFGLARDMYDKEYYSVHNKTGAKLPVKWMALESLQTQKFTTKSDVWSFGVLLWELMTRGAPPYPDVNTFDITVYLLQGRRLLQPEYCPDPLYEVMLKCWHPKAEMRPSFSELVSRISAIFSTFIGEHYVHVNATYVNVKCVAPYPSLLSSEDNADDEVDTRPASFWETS

Study 1 — host: mouse; sample: microsomes or S9; tested at: 2 µM; time: 0.5 h; quantity: remaining compound
c1ccc2c(c1)OCC(c1nn3c(Cn4cnc5ccccc54)nnc3s1)O2 (centres unmarked): 20.3%
CC(C)(C)OC(=O)N1CCC(n2cc(-c3cnc(N)c(-c4nc5ccccc5o4)c3)c3ccccc32)CC1: > 100%
C=CCc1c(O)ccc2[nH]cc(S(=O)(=O)c3ccc(C)cc3)c12: 5.88%
CN(C)c1ccc2oc(-c3cc(-c4cnn(C5CCNCC5)c4)cnc3N)nc2c1: 78.1%
O=C(Nc1ccc(F)cc1)Nc1cc2ccc(O)cc2s1: 40.9%
O=C(O)CC1CCC(c2ccc(-c3ccc(C(=O)NCCC(=O)Nc4nc(-c5cc(F)c(F)cc5F)cs4)cn3)cc2)CC1 (centres unmarked): 73.5%
CC1(C)CC(S(=O)(=O)CC2(C)CC(C3CCCCC3)=NO2)=NO1 (centres unmarked): 25.3%

Study 2 — effect on: enzyme activity; action: inhibitor; tested at: 0.5 µM; reference: control; quantity: remaining activity
SMILES: C[C@@H]1CCN(C(=O)CC#N)C[C@@H]1N(C)c1ncnc2[nH]ccc12
Cyclin-dependent kinase 9, with cyclin K (CDK9, Homo sapiens, UniProt P50750): 102%
RAC-beta serine/threonine-protein kinase (AKT2, Homo sapiens, UniProt P31751): 98%
Dual specificity mitogen-activated protein kinase kinase 1 (MAP2K1, Homo sapiens, UniProt Q02750): 112%
Rho-associated protein kinase 1 (ROCK1, Homo sapiens, UniProt Q13464): 90.1%
Tyrosine-protein kinase TXK (TXK, Homo sapiens, UniProt P42681): 98.4%
Myosin-IIIb (MYO3B, Homo sapiens, UniProt Q8WXR4): 89.3%
MAP/microtubule affinity-regulating kinase 4 (MARK4, Homo sapiens, UniProt Q96L34): 81.7%
Ribosomal protein S6 kinase alpha-4 (RPS6KA4, Homo sapiens, UniProt O75676): 105%
Dual specificity protein kinase CLK3 (CLK3, Homo sapiens, UniProt P49761): 106%
G protein-coupled receptor kinase 4 (GRK4, Homo sapiens, UniProt P32298): 93.5%
Serine/threonine-protein kinase tousled-like 2 (TLK2, Homo sapiens, UniProt Q86UE8): 94.4%
Calcium/calmodulin-dependent protein kinase type IV (CAMK4, Homo sapiens, UniProt Q16566): 96.3%
Serine/threonine-protein kinase MRCK beta (CDC42BPB, Homo sapiens, UniProt Q9Y5S2): 95.4%
Discoidin domain-containing receptor 2 (DDR2, Homo sapiens, UniProt Q16832): 104%
Hepatocyte growth factor receptor (MET, Homo sapiens, UniProt P08581): 86.7%
Cyclin-dependent kinase 1, with cyclin A (CDK1, Homo sapiens, UniProt P06493): 95.9%
Serine/threonine-protein kinase Nek3 (NEK3, Homo sapiens, UniProt P51956): 94.5%
Calcium/calmodulin-dependent protein kinase type 1B (PNCK, Homo sapiens, UniProt Q6P2M8): 104%
cGMP-dependent protein kinase 2 (PRKG2, Homo sapiens, UniProt Q13237): 106%
Dual specificity protein kinase CLK4 (CLK4, Homo sapiens, UniProt Q9HAZ1): 111%
Mitogen-activated protein kinase 11 (MAPK11, Homo sapiens, UniProt Q15759): 103%
Mitogen-activated protein kinase 1 (MAPK1, Homo sapiens, UniProt P28482): 88.6%
Misshapen-like kinase 1 (MINK1, Homo sapiens, UniProt Q8N4C8): 100%
Serine/threonine-protein kinase PAK 3 (PAK3, Homo sapiens, UniProt O75914): 105%
Mitogen-activated protein kinase 14 (MAPK14, Homo sapiens, UniProt Q16539): 93.4%

Study 3 — effect on: cell-free assay; method: competition with immobilised ligand; tested at: 1 µM; quantity: remaining binding
Compound: O=C(N1CCS(=O)(=O)CC1)N1C[C@H](c2ccc(OC(F)(F)F)cc2)C[C@H](c2nc(C3CC3)no2)C1
Serine/threonine-protein kinase PLK2 (PLK2, Homo sapiens, UniProt Q9NYY3): 100%
Casein kinase I isoform gamma-1 (CSNK1G1, Homo sapiens, UniProt Q9HCP0): 100%
Phosphatidylinositol 4,5-bisphosphate 3-kinase catalytic subunit alpha isoform (PIK3CA, Homo sapiens, UniProt P42336, I800L): 68%
Serine/threonine-protein kinase/endoribonuclease IRE1 (ERN1, Homo sapiens, UniProt O75460): 96%
Tyrosine-protein kinase CSK (CSK, Homo sapiens, UniProt P41240): 100%

Study 4 — cell line: mouse MPNST tumor cells; method: high-content nuclear imaging; refers to: cell number; tested at: 10 µM; time: 12 h; setting: mean of 2 replicates; reference: plate mean; reading: higher = more cells; quantity: nuclei count
CCc1nc2c(o1)CC(c1ccc(C)cc1C)CC2=O (racemic): 0.771 z-score
Cc1ccc(S(=O)(=O)OCC(=O)Nc2ccc(C(=O)O)c(O)c2)cc1: 1.71 z-score
COc1ccc2c(NC(=O)Nc3cccc(C(F)(F)F)n3)ccnc2c1: -1.49 z-score
O=C(O)c1ccc(O)c2ncccc12: -0.376 z-score
CC(C)(O)c1ccccc1CC[C@@H](SCC1(CC(=O)O)CC1)c1cccc(/C=C/c2ccc3ccc(Cl)cc3n2)c1: 0.604 z-score and 0.463 z-score
CC[N+](C)(CC)CCOC(=O)C1c2ccccc2Oc2ccccc21: 0.751 z-score
CN1CC(=O)N2[C@H](c3ccc4c(c3)OCO4)c3[nH]c4ccccc4c3C[C@@H]2C1=O: 1.85 z-score and 2.23 z-score
CC(C(=O)O)c1ccc(N2Cc3ccccc3C2=O)cc1 (centres unmarked): -0.438 z-score

Study 5 — cell line: HaCaT; tested at: 100 µM; time: 18 h; quantity: viability
CC1(C)O[C@@H]2[C@@H](CO[C@@]3(COS(N)(=O)=O)OC(C)(C)O[C@@H]23)O1: 107%
OC[C@H]1O[C@@H](c2ccc(Cl)c(Cc3ccc(O[C@H]4CCOC4)cc3)c2)[C@H](O)[C@@H](O)[C@@H]1O: 86.6%
CC(=O)OCC(=O)[C@H]1CC[C@H]2[C@@H]3CCC4=CC(=O)CC[C@]4(C)[C@H]3CC[C@]12C: 97.1%
CO[C@H]1/C=C/O[C@@]2(C)Oc3c(C)c(O)c4c(O)c(c(/C=N/N5CCN(C6CCCC6)CC5)c(O)c4c3C2=O)NC(=O)/C(C)=C\C=C\[C@H](C)[C@H](O)[C@@H](C)[C@@H](O)[C@@H](C)[C@H](OC(C)=O)[C@@H]1C: 86.1%
CCOC(=O)C1=C[C@]2(CC)CCCN3CCc4c(n1c1ccccc41)[C@@H]32: 45.3%
C=CCc1ccc(O)c(-c2cc(CC=C)ccc2O)c1: 17.8%
CCN[C@@H]1C[C@H](N)[C@@H](O[C@H]2OC(CN)=CC[C@H]2N)[C@H](O)[C@H]1O[C@H]1OC[C@](C)(O)[C@H](NC)[C@H]1O: 112%
CC(C)C(=O)c1c(C(C)C)nn2ccccc12: 82.8%

A few entries again (study 1):
CC(C)(C)OC(=O)N1CCC(n2cc(-c3cnc(N)c(-c4nc5ccccc5o4)c3)c3ccccc32)CC1: > 100%
C=CCc1c(O)ccc2[nH]cc(S(=O)(=O)c3ccc(C)cc3)c12: 5.88%
O=C(Nc1ccc(F)cc1)Nc1cc2ccc(O)cc2s1: 40.9%
O=C(O)CC1CCC(c2ccc(-c3ccc(C(=O)NCCC(=O)Nc4nc(-c5cc(F)c(F)cc5F)cs4)cn3)cc2)CC1 (centres unmarked): 73.5%
CC1(C)CC(S(=O)(=O)CC2(C)CC(C3CCCCC3)=NO2)=NO1 (centres unmarked): 25.3%
CN(C)c1ccc2oc(-c3cc(-c4cnn(C5CCNCC5)c4)cnc3N)nc2c1: 78.1%
c1ccc2c(c1)OCC(c1nn3c(Cn4cnc5ccccc54)nnc3s1)O2 (centres unmarked): 20.3%
